Measurements collected from several papers.
Compare with care: the assays were run in different laboratories.
B1: Cbx5 (Mus musculus, UniProt Q61686); chain MGKKTKRTADSSSSEDEEEYVVEKVLDRRMVKGQVEYLLKWKGFSEEHNTWEPEKNLDCPELISEFMKKYKKMKEGENNKPREKSEGNKRKSSFSNSADDIKSKKKREQSNDIARGFERGLEPEKIIGATDSCGDLMFLMKWKDTDEADLVLAKEANVKCPQIVIAFYEERLTWHAYPEDAENKEKESAKS
B2: lacI 1-360 N125C/D149C (Escherichia coli, UniProt P03023); chain MKPVTLYDVAEYAGVSYQTVSRVVNQASHVSAKTREKVEAAMAELNYIPNRVAQQLAGKQSLLIGVATSSLALHAPSQIVAAIKSRADQLGASVVVSMVERSGVEACKAAVHNLLAQRVSGLIICYPLDDQDAIAVEAACTNVPALFLCVSDQTPINSIIFSHEDGTRLGVEHLVALGHQQIALLAGPLSSVSARLRLAGWHKYLTRNQIQPIAEREGDWSAMSGFQQTMQMLNEGIVPTAMLVANDQMALGAMRAITESGLRVGADISVVGYDDTEDSSCYIPPLTTIKQDFRLLGQTSVDRLLQLSQGQAVKGNQLLPVSLVKRKTTLAPNTQTASPRALADSLMQLARQVSRLESGQ
B3: bvgA full length, unphosphorylated (Bordetella pertussis, UniProt P0A4H2); sequence looked up; chain MYNKVLIIDDHPVLRFAVRVLMEKEGFEVIGETDNGIDGLKIAREKIPNLVVLDIGIPKLDGLEVIARLQSLGLPLRVLVLTGQPPSLFARRCLNSGAAGFVCKHENLHEVINAAKAVMAGYTYFPSTTLSEMRMGDNAKSDSTLISVLSNRELTVLQLLAQGMSNKDIADSMFLSNKTVSTYKTRLLQKLNATSLVELIDLAKRNNLA
B4: panD E96A (Mycobacterium abscessus, UniProt B1MGV7); chain MMFRTMMKSKIHRATVTHADLHYVGSVTIDPDLMEAADLLEGEQVTIVDIDNGARLETYAITGTRGSGVIGINGAAAHLVHPGDLVIIIAYGVMTDAEARAFTPRVVFVDSDNKQVELGEHSDDPAYVPENFGLVSPRGLV
B5: mpr (Mycobacterium smegmatis, UniProt Q50442); chain MTTPQPYPGMPSQPAPQGVPYPPQQPAKKKRKWPAIVGGVIALMIVGSIFNDDKKDTTPAENTATVAQAPAAAPTKEVPETTATINTPVRDGKFEFVVRSVEPGLSEVGDNPFLNQKAQGQFVIVTLSVQNIGDRPQGFSPSNQKLFDTEGRSFETDTSAQIALDNNDIAVWDNINPGNTVDVSLVYDMPVDAVPASIELHDSMFSGGVTVNLTP
B6: pyrE R53A/R56A (Burkholderia cenocepacia, UniProt B4E589); chain MTGYDRQSISDTTAKILLEVQAVHFNAEKPFIFTSGWASPVYIDCRKLISYPAVRAALMEMAETTITRDIGFEQIDAVAGGETAGIPFAAWIADRMMVPMQYVRKKPKGFGRNAQIEGHLEEGSRVLLVEDLTTDSRSKINFVNALRTAGATVNHCFVLFHYNIFKESVSVLKDIDVDLHALATWWDVLRVAKASGYFETKTLDEVEKFLHAPAEWSAAHGGATAPKE
B7: aer2 A184C/Q282C (Pseudomonas aeruginosa, UniProt Q9I6V6); chain MGLFNAHAVAQQRADRIATLLQSFADGQLDTAVGEAPAPGYERLYDSLRALQRQLREQRAELQQVESLEAGLAEMSRQHEAGWIDQTIPAERLEGRAARIAKGVNELVAAHIAVKMKVVSVVTAYGQGNFEPLMDRLPGKKAQITEAIDGVRERLRGAAEATSAQLATAAYNARIKSALDNVSCNVMIADNDLNIIYMNRTVSEMLGRAEADIRKQLPNFDAGRLMGANIDVFHKNPAHQRHLLANLTGVHKAELNLGGRRFSLDVVPVFNDANERLGSAVCWTDRTEEHRAEQEVSQLVQAAAAGDFSKRVEEAGKEGFFLRLAKDLNSLVDTADRGLRDVSRMLGALAQGDLTQRIEADYQGTFGQLKDFSNDTAQSLSRMLGQIREAADTINTAASEIASGNAELSARTEQQASSLEETASSMEELTSTVKLNAENARQANSLAANASEVATQGGTVVQKVVSTMSSINESARKIADIIGVIDGIAFQTNILALNAAVEAARAGEQGRGFAVVAGEVRTLAQRSAAAAKEIKTLISDSVDKVENGNTLVAQAGQTMSDIVVAIRRVTDIMSEIAAASAEQSTGIEEVNSAVSQMDDMTQQNAALVEEAAAAAEAMQEQAGLLNQSVAVFRLDTPPSVVQLASARPSAPRPSAPAPLARSGMARASKARKEDGWEEF
B8: protein (Mycolicibacterium smegmatis, UniProt A0QS64); sequence looked up; chain MGVQIDVTGLSKSFGSSKIWEDVTMSIPAGEVSVLLGPSGTGKSVFLKSLIGLLRPERGSIVIDGTDILQCSAKELYEIRTLFGVLFQDGALFGSMNIYDNTAFPLREHTKKSESEIRKIVMEKLDLVGMPNDGHKFPGEISGGMRKRAGLARALVLDPEIILCDEPDSGLDPVRTAYLSQLLIDINAQIDATVLIVTHNINIARTVPDNMGMLFRKQLVMFGPREVLLTSEEPVVKQFLNGRRIGPIGMSEEKDEATAAAEQALVDAGQHDGGVEEIEGVPPQLQATPGMPERKAVARRKARVREILHTLPPAAQAAILEELDRDQPQLSAPTTQTAATAPVENYDDSPTGVIEVPKQA
B9: mutL 460-658 (Neisseria gonorrhoeae, UniProt Q5F8M6); chain SQSELPPLGFAIAQLLGIYILAQAEDSLLLIDMHAAAERVNYEKMKRQRQENGNLQSQHLLIPVTFAASHEECAALADHAETLAGFGLELSDMGGNTLAVRAAPVMLGKSDVVSLARDVLGELAQVGSSQTIASHENRILATMSCHGSIRAGRRLTLPEMNALLRDMENTPRSNQCNHGRPTWVKLTLKELDTLFLRGQ
Chain of UniProt Q12527 (whole entry, looked up): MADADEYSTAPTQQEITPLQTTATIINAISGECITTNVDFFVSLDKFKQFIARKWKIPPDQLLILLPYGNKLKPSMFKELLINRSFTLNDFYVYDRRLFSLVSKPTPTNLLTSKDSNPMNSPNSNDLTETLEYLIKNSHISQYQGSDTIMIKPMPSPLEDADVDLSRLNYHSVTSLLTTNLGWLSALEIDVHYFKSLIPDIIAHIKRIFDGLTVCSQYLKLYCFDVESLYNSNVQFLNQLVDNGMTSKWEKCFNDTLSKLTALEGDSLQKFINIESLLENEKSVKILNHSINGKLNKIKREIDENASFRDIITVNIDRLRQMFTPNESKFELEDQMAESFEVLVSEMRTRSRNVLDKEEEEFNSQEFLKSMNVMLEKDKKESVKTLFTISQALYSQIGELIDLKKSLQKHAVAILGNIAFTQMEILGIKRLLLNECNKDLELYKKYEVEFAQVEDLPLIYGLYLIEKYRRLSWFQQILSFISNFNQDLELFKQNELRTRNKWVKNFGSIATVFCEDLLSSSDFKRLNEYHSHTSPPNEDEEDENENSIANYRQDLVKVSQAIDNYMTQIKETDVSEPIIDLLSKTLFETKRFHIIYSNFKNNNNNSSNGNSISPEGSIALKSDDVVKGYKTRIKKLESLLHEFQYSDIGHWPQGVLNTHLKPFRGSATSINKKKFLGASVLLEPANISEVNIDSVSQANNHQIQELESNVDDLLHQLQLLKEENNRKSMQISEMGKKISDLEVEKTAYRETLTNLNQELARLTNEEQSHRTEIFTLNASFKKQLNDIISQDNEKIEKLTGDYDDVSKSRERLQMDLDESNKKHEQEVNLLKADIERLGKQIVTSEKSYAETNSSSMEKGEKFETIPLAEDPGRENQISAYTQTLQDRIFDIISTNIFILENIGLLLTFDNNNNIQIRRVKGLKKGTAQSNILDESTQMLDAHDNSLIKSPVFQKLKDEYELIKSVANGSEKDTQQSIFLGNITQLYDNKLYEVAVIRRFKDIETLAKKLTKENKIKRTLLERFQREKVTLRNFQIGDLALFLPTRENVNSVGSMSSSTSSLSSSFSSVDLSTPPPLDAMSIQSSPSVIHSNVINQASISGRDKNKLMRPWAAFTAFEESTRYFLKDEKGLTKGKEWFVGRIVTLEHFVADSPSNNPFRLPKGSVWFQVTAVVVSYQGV

Under “subunits per oligomer”, `B1 (Cbx5)` is recorded as 2 (itself; SEC-SAXS).
Under “subunits per oligomer”, `ATG11 (Saccharomyces cerevisiae, UniProt Q12527)` is recorded as 2 (itself; SEC).
`gpE major capsid protein (bacteriophage lambda, UniProt P03713)` — result for “subunits per oligomer”: 415 (itself; cryo-EM).
For `B2 (lacI 1-360 N125C/D149C)`, “subunits per oligomer” read 4 (itself; SEC).
`B3` — result for “subunits per oligomer”: 2 (itself; cross-linking).
For `B4 (panD E96A)`, “subunits per oligomer” read 4 (itself; native gel).
`B5 (mpr)`: “subunits per oligomer” 20 (itself; SEC).
For `insulin human`, the fold change was 1.02 (measured: EPHA7 mRNA; uninfected mouse, brain; i.p., dose not given; reference: PBS).
`B6 (pyrE R53A/R56A)`: “subunits per oligomer” 2 (itself; SEC).
Under “subunits per oligomer”, `B7 (aer2 A184C/Q282C)` is recorded as 2 (itself; cross-linking).
Under “subunits per oligomer”, `B8 (protein)` is recorded as 2 (itself; cryo-EM).
`RMKQIEDKIEEIESKQKKIENEIARIKKLLQLTVWGIKQLQARIL (peptide)`: “subunits per oligomer” 3 (itself; crystal structure; peptide).
For `B9 (mutL 460-658)`, “subunits per oligomer” read 2 (itself; SEC-MALS).

Excerpt of the above:
`B3` — result for “subunits per oligomer”: 2 (itself; cross-linking).
For `B2 (lacI 1-360 N125C/D149C)`, “subunits per oligomer” read 4 (itself; SEC).
